Assay results gathered from unrelated publications.
Lines come from different studies, so protocols differ. Several values in a cell are separate wells, animals, samples, runs or records. ± gives the spread as reported. Values after ≈ are worked out from the molar mass of the structure shown.
UniProt P46663, sequence (whole entry, looked up): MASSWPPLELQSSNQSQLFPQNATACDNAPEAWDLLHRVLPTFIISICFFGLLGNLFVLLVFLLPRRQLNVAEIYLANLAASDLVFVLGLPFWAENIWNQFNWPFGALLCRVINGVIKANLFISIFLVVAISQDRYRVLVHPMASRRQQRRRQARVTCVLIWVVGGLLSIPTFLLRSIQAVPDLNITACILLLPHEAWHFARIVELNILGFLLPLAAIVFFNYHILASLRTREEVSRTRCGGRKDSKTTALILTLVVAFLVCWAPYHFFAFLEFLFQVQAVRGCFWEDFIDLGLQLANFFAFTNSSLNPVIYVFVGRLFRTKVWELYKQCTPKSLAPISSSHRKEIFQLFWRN
UniProt P80192, sequence (whole entry, looked up): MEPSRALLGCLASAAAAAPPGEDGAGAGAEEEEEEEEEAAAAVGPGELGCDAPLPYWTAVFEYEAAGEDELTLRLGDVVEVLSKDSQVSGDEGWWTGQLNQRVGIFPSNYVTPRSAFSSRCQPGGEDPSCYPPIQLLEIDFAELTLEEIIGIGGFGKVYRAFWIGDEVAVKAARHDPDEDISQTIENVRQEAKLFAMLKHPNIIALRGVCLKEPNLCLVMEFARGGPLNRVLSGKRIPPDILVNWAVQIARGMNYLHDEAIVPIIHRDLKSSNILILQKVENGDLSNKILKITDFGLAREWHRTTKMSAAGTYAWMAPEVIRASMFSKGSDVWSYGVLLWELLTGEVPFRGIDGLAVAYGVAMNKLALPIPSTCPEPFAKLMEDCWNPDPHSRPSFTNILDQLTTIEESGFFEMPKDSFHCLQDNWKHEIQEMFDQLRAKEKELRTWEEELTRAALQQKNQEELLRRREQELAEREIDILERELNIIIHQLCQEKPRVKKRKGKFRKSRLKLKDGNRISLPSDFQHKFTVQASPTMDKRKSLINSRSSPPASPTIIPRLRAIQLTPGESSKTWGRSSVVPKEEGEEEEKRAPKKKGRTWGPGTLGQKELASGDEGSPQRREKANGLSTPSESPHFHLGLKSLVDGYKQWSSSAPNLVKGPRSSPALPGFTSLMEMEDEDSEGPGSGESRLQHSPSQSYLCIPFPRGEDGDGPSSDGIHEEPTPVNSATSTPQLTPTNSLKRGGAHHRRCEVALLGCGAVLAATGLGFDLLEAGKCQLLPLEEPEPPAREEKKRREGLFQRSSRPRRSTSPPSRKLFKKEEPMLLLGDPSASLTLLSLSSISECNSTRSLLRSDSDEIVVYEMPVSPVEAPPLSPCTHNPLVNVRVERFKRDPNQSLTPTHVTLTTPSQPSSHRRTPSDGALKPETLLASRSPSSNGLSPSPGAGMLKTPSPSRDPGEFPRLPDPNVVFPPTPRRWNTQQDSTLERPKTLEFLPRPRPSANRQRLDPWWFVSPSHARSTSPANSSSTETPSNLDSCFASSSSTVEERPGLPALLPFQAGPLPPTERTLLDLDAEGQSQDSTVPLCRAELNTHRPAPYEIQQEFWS
UniProt P28482, sequence (whole entry, looked up): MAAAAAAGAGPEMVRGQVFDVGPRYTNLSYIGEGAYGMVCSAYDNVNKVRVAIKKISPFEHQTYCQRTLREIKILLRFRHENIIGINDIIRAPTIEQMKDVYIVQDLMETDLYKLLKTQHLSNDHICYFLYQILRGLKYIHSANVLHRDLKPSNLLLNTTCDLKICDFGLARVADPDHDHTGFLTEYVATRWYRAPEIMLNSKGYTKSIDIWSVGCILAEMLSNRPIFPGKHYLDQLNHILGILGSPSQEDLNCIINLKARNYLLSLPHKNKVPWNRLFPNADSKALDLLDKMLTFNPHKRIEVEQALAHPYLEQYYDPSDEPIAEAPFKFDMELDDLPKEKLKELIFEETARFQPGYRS

Cc1ccc(C2=CC(C)(C)Oc3ccc(-c4ccc(-c5ccc(C(=O)O)cc5)[nH]4)cc32)cc1
tubules with abnormal round spermatids (CD-1 mouse, male, testis; 20 mg/kg/day, 2 weeks, one day after dosing end): 37% and 60.4%

CC(C)(C)C(=O)OCOP(=O)(OCOC(=O)C(C)(C)C)C1CCCN(O)C1=O (centres unmarked)
GI50 (SK-MEL-28): 0.321 µM

CS(C)(=O)=Nc1ccc(-c2ccc(-c3nc4cc(O[C@@H]5CO[C@H]6[C@@H]5OC[C@H]6O)[nH]c4cc3F)cc2)cc1
inhibition (BDKRB1 (Homo sapiens, UniProt P46663); calcium signal, antagonist; 10 µM): 30%

O=C1NC(=O)c2c1c1cc(F)c[n+]3c1c1c2c2cc(O)ccc2[n]1[Ru-4]312([N]=C=S)[S+]3CC[S+]1CC[S+]2CC3 (centres unmarked)
remaining activity (MAPK1 (Homo sapiens, UniProt P28482); enzyme activity; 100 nM, human enzyme, together with: 10 µM ATP; baseline: untreated): 7%

CCN(Cc1ccccc1)C(=O)CCc1nc(CN2CCN(C(=O)Cc3ccc(OC)c(OC)c3)CC2)no1
beam crossing time (beam walking test; mouse, CCI neuropathic pain model; 5 mg/kg): 6.95 ± 0.27 s

CC[C@H](C)[C@H](N)C(=O)N[C@@H](CO)C(=O)N[C@@H](Cc1ccc(O)cc1)C(=O)NCC(=O)NCC(=O)N[C@@H](C)C(=O)N[C@@H](CC(=O)O)C(=O)N[C@@H](Cc1ccc(O)cc1)C(=O)N[C@@H](CCCCN)C(=O)O
ED50 (formalin pain, second phase; mouse; intrathecal, 5 min before formalin, together with: formalin 5%): 0.63 nmol

CC(C)C[C@H](NC(=O)[C@H](CCC(=O)O)NC(=O)[C@H](Cc1ccccc1)NC(=O)[C@@H]1CCCN1C(=O)CNC(=O)OCc1ccccc1)C(=O)N[C@@H](CCC(=O)O)C(=O)N[C@@H](CCCNC(=N)N)C(=O)N[C@@H](CCCNC(=N)N)C(=O)N[C@@H](Cc1ccccc1)C(=O)N[C@@H](CCCCN)C(=O)N[C@@H](CCC(N)=O)C(=O)N[C@@H](CCC(N)=O)C(=O)O
perfusion fraction f (mouse orthotopic tumour): 0.0837

O=C(O)c1ccc(-c2nc(-c3ccccc3Cl)c3sccn23)cc1
platelet count change (C57BL/6 mice; dose not given, days 26 and 27 pooled, basal hematopoiesis): 137% and 104% and 112% and 134% and 84.8% and 96.1%

CC[C@H](C)[C@H](NC(=O)[C@H](CC(C)C)NC(=O)[C@H](CC(=O)O)NC(=O)[C@H](CCCNC(=N)N)NC(=O)[C@H](Cc1c[nH]c2ccccc12)NC(=O)[C@@H](N)CC(C)C)C(=O)N[C@@H](CS)C(=O)N[C@@H](CC(C)C)C(=O)N[C@@H](CS)C(=O)N[C@@H](CCCNC(=N)N)C(=O)N[C@@H](CC(N)=O)C(=O)N[C@@H](CCCNC(=N)N)C(=O)N[C@@H](CCCNC(=N)N)C(=O)N[C@@H](CS)C(=O)N[C@@H](CC(N)=O)C(=O)N[C@@H](CCCNC(=N)N)C(=O)NCC(=O)N[C@@H](CCC(N)=O)C(=O)N[C@@H](CC(C)C)C(=O)N[C@@H](Cc1ccccc1)C(=O)N1CCC[C@H]1C(=O)NCC(=O)N[C@@H](Cc1c[nH]c2ccccc12)C(=O)N[C@@H](CS)C(=O)N1CCC[C@H]1C(=O)NCC(=O)N[C@@H](Cc1c[nH]c2ccccc12)C(=O)N[C@@H](Cc1c[nH]c2ccccc12)C(=O)N[C@@H](CC(C)C)C(=O)N[C@@H](CCCNC(=N)N)C(=O)N[C@@H](CS)C(=O)N[C@@H](CS)C(=O)N[C@@H](CCCNC(=N)N)C(=O)N[C@@H](CCCNC(=N)N)C(N)=O
colon MPO level (C57BL/6J mice, DSS colitis; 5 mg/kg, 7 days; baseline: DSS model): decreased

COc1ccccc1-c1n[nH]c2nc(NC3CCN(C(=O)Cc4ccc(F)cc4F)CC3)ncc12
relative abundance (bead binding, competition bead pull-down, item: LINJ.33.1660; Leishmania donovani axenic amastigote extract; 10 µM; baseline: vehicle): 1.04

CC(C)[C@H]1NC(=O)C[C@H]2/C=C/CCSSC[C@@H](NC1=O)C(=O)N[C@H](Cc1cccc3ccccc13)C(=O)NCC(=O)O2
inhibition (MAP3K9 (Homo sapiens, UniProt P80192); enzyme activity, inhibitor; 10 µM): 7.5%

CCCC[C@@H]1NC(=O)[C@H](Cc2ccc(O)cc2)NC(=O)[C@@H]2CCCN2C(=O)[C@H](CC(=O)O)NC(=O)[C@H](C)NC(=O)[C@H](Cc2ccccc2)NC(=O)[C@@H]2CSCCC(=O)N3CN(CN(C3)C(=O)CCSC[C@@H](C(=O)N[C@@H](C)C(N)=O)NC1=O)C(=O)CCSC[C@H](NC(C)=O)C(=O)N[C@@H](CC(C)(C)C)C(=O)N1CCC[C@H]1C(=O)N[C@@H](CCC(=O)O)C(=O)N[C@H](CCCCNC(=O)CCc1cn(CCOCCOCCOCCN(CCOCCOCCOCCC(=O)N[C@H]3CSCCC(=O)N4CN5CN(C4)C(=O)CCSC[C@H](NC(=O)[C@@H](CC(=O)O)NC(=O)[C@H](Cc4cccc6ccccc46)NC(=O)[C@@H]4CCCN4C3=O)C(=O)N[C@@H](CCSC)C(=O)N[C@@H](CCCCNC(=N)N)C(=O)N[C@@H](CC(=O)O)C(=O)N[C@@H](Cc3c[nH]c4ccccc34)C(=O)N[C@@H](CO)C(=O)N[C@@H]([C@@H](C)O)C(=O)N3CCC[C@H]3C(=O)N3C[C@H](O)C[C@H]3C(=O)N[C@@H](Cc3c[nH]c4ccccc34)C(=O)N[C@H](C(N)=O)CSCCC5=O)CCOCCOCCOCCn3cc(CCC(=O)NCCCC[C@H]4NC(=O)[C@H](CCC(=O)O)NC(=O)[C@@H]5CCCN5C(=O)[C@H](CC(C)(C)C)NC(=O)[C@@H](NC(C)=O)CSCCC(=O)N5CN6CN(C5)C(=O)CCSC[C@H](NC(=O)[C@H](Cc5ccc(O)cc5)NC(=O)[C@@H]5CCCN5C4=O)C(=O)N[C@@H](Cc4ccccc4)C(=O)N[C@@H](C)C(=O)N[C@@H](CC(=O)O)C(=O)N4CCC[C@H]4C(=O)N[C@@H](Cc4ccc(O)cc4)C(=O)N[C@@H](CCCC)C(=O)N[C@H](C(=O)N[C@@H](C)C(N)=O)CSCCC6=O)nn3)nn1)C(=O)N1CCC[C@H]1C(=O)N[C@@H](Cc1ccc(O)cc1)C(=O)N2
mRNA level (NanoString, item: Il1rl2-mRNA; mouse bearing MC38-Nectin-4 tumour, circulating white blood cells; 5 mg/kg, 24 h after dosing, unit not given; baseline: vehicle): 5.11

O=C1NC2(CC2)COc2ncc(F)cc2[C@H]2COCCN2c2ccn3ncc1c3n2
reticulocytes (Sprague-Dawley rat, female, blood; oral, 5 mg/kg/day, end of recovery, 4-week repeated-dose toxicity; baseline: red blood cells): 1.6 ± 0.44%

CCc1nnc(-c2c(OC)cc(-c3cnc4cc(-c5cnn(C)c5)ccn34)cc2OC)o1
osteoblast surface/bone surface (histomorphometry; male C57BL/6J mouse, tibia; oral gavage, 10 mg/kg once daily, 3 wk): 7.27 ± 0.9%

N#CC(=Cc1ccccc1)n1cccn1
β-elimination rate constant (pH 7.4): 0.0002 min⁻¹

CC[C@H](C)[C@@H]([C@@H](CC(=O)N1CCC[C@H]1[C@H](OC)[C@@H](C)C(=O)N[C@H](C)[C@@H](O)c1ccccc1)OC)N(C)C(=O)[C@@H](NC(=O)[C@H](C(C)C)N(C)C(=O)OCc1ccc(NC(=O)[C@H](CCCNC(N)=O)NC(=O)[C@@H](NC(=O)CCCCCN2C(=O)CC(SC[C@H](NC(=O)[C@H](CC(=O)O)NC(=O)[C@H](Cc3ccc(O)cc3)NC(=O)[C@H](Cc3c[nH]c4ccccc34)NC(=O)[C@@H](N)CCCNC(=N)N)C(=O)O)C2=O)C(C)C)cc1)C(C)C (some centres unmarked)
tumour weight (C57BL/6 mouse, subcutaneous Lewis lung carcinoma; dose not given, end of study): decreased

CCCCCC1=C(NCC)C(=O)C(C/C=C(\C)CCC=C(C)C)=C(O)C1=O
normalised enrichment score (RNA-seq GSEA, item: HALLMARK_MYOGENESIS; mouse, A53T α-synuclein lesioned, striatum; dose not given; baseline: untreated A53T lesioned mice, direction not given): -1.72

CC[C@H](C)[C@H](NC(=O)[C@H](CCCNC(=N)N)NC(=O)[C@H](CCCNC(=N)N)NC(=O)[C@H](CC(C)C)NC(=O)[C@H](Cc1ccccc1)NC(=O)CNC(=O)CNC(=O)[C@@H](N)Cc1ccc(O)cc1)C(=O)N[C@@H](CCCNC(=N)N)C(=O)O
IC50 ([3H]deltorphin II uptake, inhibitor; rabbit, cells; 15 min, NaCl-containing medium): 7.8 ± 1 µM

COc1ccccc1-c1n[nH]c2nc(N[C@H]3CC[C@H](NS(=O)(=O)CC(C)C)CC3)ncc12
relative abundance (bead binding, competition bead pull-down, item: LINJ.03.0380; Leishmania donovani extract; 10 µM; baseline: vehicle): 0.83

CC[C@H](C)[C@H](NC(=O)[C@H](CCCNC(=N)N)NC(=O)[C@H](CO)NC(=O)[C@H](Cc1ccc(O)cc1)NC(=O)[C@@H](NC(=O)[C@@H](NC(=O)[C@H](C)NC(=O)CNC(=O)[C@H](CCCCN)NC(=O)[C@H](CCCCN)NC(=O)CCNC(=O)CCCCCNC(=O)[C@H](CCCNC(=N)N)NC(=O)CCCCCNC(=O)[C@H](CCCNC(=N)N)NC(=O)[C@H](CCCNC(=N)N)NC(=O)CCCCCNC(=O)[C@H](CCCNC(=N)N)NC(=O)[C@H](CCCNC(=N)N)NC(=O)CCCCCNC(=O)[C@H](CCCNC(=N)N)NC(=O)[C@H](CCCNC(=N)N)NC(=O)CCCCCNC(=O)[C@@H](N)CCCNC(=N)N)C(C)C)[C@@H](C)O)C(=O)N[C@@H](CO)C(=O)NCC(=O)N[C@@H](CCC(N)=O)C(=O)N[C@@H](Cc1ccc(O)cc1)C(=O)N[C@@H](CCCCN)C(=O)O
MIC (broth microdilution; ATCC 33592 resistant strain, Mueller-Hinton broth): 24 µM (≈ 85.7 µg/mL)

COC(=O)C1CN1S(=O)(=O)c1ccc(C)cc1 (centres unmarked)
tumour growth inhibition (mouse Lewis lung carcinoma; intraperitoneal, 100 mg/kg, day 13): 66%

Cc1cc(O)cc(C)c1C[C@H](N)C(=O)N[C@H](CCCNC(=N)N)C(=O)N[C@@H](Cc1ccccc1)C(=O)N[C@@H](CCCCN)C(=O)N[C@H]1CC[C@H](NC(=O)[C@H](Cc2ccccc2)NC(=O)[C@H](CC2CCCCC2)NC[C@@H]2Cc3ccccc3CN2C(=O)[C@@H](N)Cc2ccc(O)cc2)CC1
IC50 (agonist; guinea pig ileum): 0.056 ± 0.0182 µM

COc1ccc2c(c1OC)C[NH+]1CCc3cc4c(cc3C1C2)OCO4.[Cl][Fe-]([Cl])([Cl])[Cl] (centres unmarked)
DPPH scavenging (1.0 mg/mL, 30 min, 25 °C): 47.2%

For quick reference, copied from above:
CC[C@H](C)[C@@H]([C@@H](CC(=O)N1CCC[C@H]1[C@H](OC)[C@@H](C)C(=O)N[C@H](C)[C@@H](O)c1ccccc1)OC)N(C)C(=O)[C@@H](NC(=O)[C@H](C(C)C)N(C)C(=O)OCc1ccc(NC(=O)[C@H](CCCNC(N)=O)NC(=O)[C@@H](NC(=O)CCCCCN2C(=O)CC(SC[C@H](NC(=O)[C@H](CC(=O)O)NC(=O)[C@H](Cc3ccc(O)cc3)NC(=O)[C@H](Cc3c[nH]c4ccccc34)NC(=O)[C@@H](N)CCCNC(=N)N)C(=O)O)C2=O)C(C)C)cc1)C(C)C (some centres unmarked)
tumour weight (C57BL/6 mouse, subcutaneous Lewis lung carcinoma; dose not given, end of study): decreased

CCCCCC1=C(NCC)C(=O)C(C/C=C(\C)CCC=C(C)C)=C(O)C1=O
normalised enrichment score (RNA-seq GSEA, item: HALLMARK_MYOGENESIS; mouse, A53T α-synuclein lesioned, striatum; dose not given; baseline: untreated A53T lesioned mice, direction not given): -1.72

CC[C@H](C)[C@H](NC(=O)[C@H](CCCNC(=N)N)NC(=O)[C@H](CCCNC(=N)N)NC(=O)[C@H](CC(C)C)NC(=O)[C@H](Cc1ccccc1)NC(=O)CNC(=O)CNC(=O)[C@@H](N)Cc1ccc(O)cc1)C(=O)N[C@@H](CCCNC(=N)N)C(=O)O
IC50 ([3H]deltorphin II uptake, inhibitor; rabbit, cells; 15 min, NaCl-containing medium): 7.8 ± 1 µM
